# Published values collected from several papers.
# Lines come from different studies, so protocols differ.
# B1: enzyme (Escherichia coli, UniProt P0AG07); chain MKQYLIAPSILSADFARLGEDTAKALAAGADVVHFDVMDNHYVPNLTIGPMVLKSLRNYGITAPIDVHLMVKPVDRIVPDFAAAGASIITFHPEASEHVDRTLQLIKENGCKAGLVFNPATPLSYLDYVMDKLDVILLMSVNPGFGGQSFIPQTLDKLREVRRRIDESGFDIRLEVDGGVKVNNIGEIAAAGADMFVAGSAIFDQPDYKKVIDEMRSELAKVSHE
# B2: enzyme (Geobacillus stearothermophilus, UniProt P42328); chain MKAAVVEQFKEPLKIKEVEKPTISYGEVLVRIKACGVCHTDLHAAHGDWPVKPKLPLIPGHEGVGIVEEVGPGVTHLKVGDRVGIPWLYSACGHCDYCLSGQETLCEHQKNAGYSVDGGYAEYCRAAADYVVKIPDNLSFEEAAPIFCAGVTTYKALKVTGAKPGEWVAIYGIGGLGHVAVQYAKAMGLNVVAVDIGDEKLELAKELGADLVVNPLKEDAAKFMKEKVGGVHAAVVTAVSKPAFQSAYNSIRRGGACVLVGLPPEEMPIPIFDTVLNGIKIIGSIVGTRKDLQEALQFAAEGKVKTIIEVQPLEKINEVFDRMLKGQINGRVVLTLEDK
# B3: enzyme (UniProt A0A7S7NT01); chain APLPVRGIHLGAPSPEEMPLAIRFIEEALPKEGVNVLILEFNYRYQYASHPEVVDANALSADQVRQLAASCRKANVRLIPLINLLGHQSWAKTTFGLLRAHPEFDETPKMYPENKDIYCRSYCPRHPKVHGVLFDLIDELMAVTGADAFHAGMDEVFLLGEKECKRCRGRNKAELFANEVKAIHAHLAKQKKELWIWGDRLIDGKVTGIGKWEASVNDTAAALALIPKDVVINDWHYEAPHATGTYFALSGFRVVSSPWKKTPVALGQLAQIRDARAHSTKPVGDRMLGMLQTTWVGFGPFVRAYFGEGEPPKQGVPEAVECFRALFAELRTMN
# B4: RABH1B (Arabidopsis thaliana, UniProt O80501); chain MAPVSALAKYKLVFLGDQSVGKTSIITRFMYDKFDNTYQATIGIDFLSKTMYLEDRTVRLQLWDTAGQERFRSLIPSYIRDSSVAVIVYDVASRQSFLNTTKWIDEVRTERGSDVIVVLVGNKTDLVDKRQVSIEEAEAKARELNVMFIETSAKAGFNIKALFRKIAAALPGMETLSSTKQEDMVDVNLKSSNANASLAQQQSGGCSC
# B5: enzyme (Oryza sativa, UniProt Q6ZGQ4); chain ASGPPFSCGAPSSAAFCNPRLPIEQRADDLVSRLTLEEKISQLGDQSPAVDRLGVPAYKWWSEALHGVSNAGRGIHLDGPLRAATSFPQVILTAASFNPHLWYRIGQVIGTEARAVYNNGQAEGLTFWAPNINVFRDPRWGRGQETPGEDPTVTGKYAAVFVRGVQGYALAGAINSTDLEASACCKHFTAYDLENWKGVTRYAFDAKVTAQDLADTYNPPFRSCVEDGGASGIMCSYNRVNGVPTCADYNLLSKTARGDWRFYGYITSDCDAVSIIHDVQGYAKTAEDAVADVLKAGMDVNCGSYVQEHGLSAIQQGKITEQDINRALHNLFAVRMRLGLFNGNPKYNRYGNIGPDQVCTQEHQNLALEAAQHGVVLLKNDANALPLSKSQVSSIAVIGHNANDATRLLGNYFGPPCISVTPLQVLQGYVKDTRFLAGCNSAACNVSSIGEAAQLASSVDYVVLFMGLDQDQEREEVDRLELSLPGMQENLINTVANAAKKPVILVLLCGGPVDVTFAKYNPKIGAILWAGYPGEAGGIAIAQVLFGEHNPGGRLPVTWYPKEFTSVPMTDMRMRADPSTGYPGRTYRFYRGNTVYKFGYGLSYSKYSHHFVANGTKLPSLSSIDGLKAMATAAAGTVSYDVEEIGPETCDKLKFPALVRVQNHGPMDGRHPVLLFLRWPNGAADGGRPASQLIGFQSLHLKSMQTVHVEFEVSPCKHFSRATEDGKKVIDHGSHFMMVGDDEFEMSFTP
# B6: enzyme H130Y (Salinispora arenicola, UniProt A8M783); chain MASTPWISFTTDYGLADGFVAACHGVLARLAPTARVIDVTHLVPPGDVRRGAAVLAQTVPYLPAAVHVAVVDPGVGTARRAIALTAGNGLLVGPDNGLLLDAATALGGVDAAVELTNPDWLGARMSATFYGRDVFAPVAARLALGAPLADAGPAVEPGALVRLPTPLVQPETDGFTAEVLTVDHFGNVQLAATGALLESLPRSLRVAHRPAVHARTFDDAPPGGLLVHVDSAGLVAVAVNGGRAADLLAVTPGDQLRVTAG
# B7: enzyme C434A (Methanosarcina mazei, UniProt Q8PVB1); chain MSEQRSVPLREHLLALKPCRHGGLIQETSETYGIPENEILDFSANFNPLGSPFDYPENGLNFEDIIKKSCGKLLEYPDNRYVEFREAAARFVGLGVTPQSIVPGNGSTEIVRLVVESVIEKGDKVLLPWPTFGEYEMQCRITGAEPVCPSQEEVNTLPDEVLEEAKILFICNPNNPTGKLRTREELKVLAERCREHKTLLYVDEAFIELSDPSQSVADLPAENNYVFVMRSLTKDFAIPGIRMGFGIAPPAMADILNTARLSWNLGAIANNTGIALLNIEGGIDSPYLKKAREMILKEGETLKAKIDRIRGFEAGEVNVNFILVDVSKFMLNSSELTARLAARGVLVRDCVSFHGLGKNYIRVAVRTEKENDRLIAAIGDVITEWGREQAKNELQHVIEKASEEGIGGRKTCEYYPCHFEGQNCTFCFCPFYPAENEKTGGKWIQSSRGGRVWSCVDCHLVHKKEIAQKILDCLMHEGDTDELVKVAWKEVMEPIL
# Sequence of UniProt P39597 (whole entry, looked up): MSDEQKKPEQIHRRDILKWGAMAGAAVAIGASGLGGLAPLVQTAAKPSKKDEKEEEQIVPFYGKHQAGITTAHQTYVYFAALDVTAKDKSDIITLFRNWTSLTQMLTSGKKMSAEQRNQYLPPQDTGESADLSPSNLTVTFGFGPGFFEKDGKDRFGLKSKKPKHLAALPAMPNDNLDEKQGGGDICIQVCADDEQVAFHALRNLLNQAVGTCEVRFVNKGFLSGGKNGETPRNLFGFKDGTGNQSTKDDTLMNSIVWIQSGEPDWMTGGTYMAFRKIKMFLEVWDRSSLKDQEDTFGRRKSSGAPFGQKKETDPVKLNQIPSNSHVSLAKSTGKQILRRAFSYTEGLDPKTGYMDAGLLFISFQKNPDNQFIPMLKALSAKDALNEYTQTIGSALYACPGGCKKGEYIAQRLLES
Molecule,tested on,test,test system,setting,scale,quantity,value
B1 (enzyme),O=C(CO)[C@H](O)[C@H](O)COP(=O)(O)O,steady-state kinetics,,"pH 8.8, 25 °C",,Km,1600 µM
GSGAGKETEC,human MAGI1-2/6 PDZ construct (MBP fusion),automated holdup,"peptide, crude extract","concentration not given, uncorrected, unit not given","relative to: biotin control resin, higher = stronger binding",binding intensity,0.214
B2 (enzyme),NC(=O)c1ccc[n+]([C@@H]2O[C@H](COP(=O)(O)OP(=O)(O)OC[C@H]3O[C@@H](n4cnc5c(N)ncnc54)[C@H](O)[C@@H]3O)[C@@H](O)[C@H]2O)c1,steady-state kinetics,,"pH 8, apparent, cofactor varied",,Km,50 µM
B3 (enzyme),CC(=O)N[C@H]1[C@H](Oc2ccc([N+](=O)[O-])cc2)O[C@H](CO)[C@@H](O[C@@H]2O[C@H](CO)[C@H](O)[C@H](O)[C@H]2O)[C@@H]1O,steady-state kinetics,,"pH 6, 45 °C",,Km,1410 µM
enzyme (UniProt A0A063Y6V3),NC(=O)C1=CN([C@@H]2O[C@H](COP(=O)(O)OP(=O)(O)OC[C@H]3O[C@@H](n4cnc5c(N)ncnc54)[C@H](O)[C@@H]3O)[C@@H](O)[C@H]2O)C=CC1,steady-state kinetics,,"pH 7, 30 °C, cofactor varied",,Km,30.4 µM
EKPIDSETKM,human MAGI1-2/6 PDZ construct (MBP fusion),automated holdup,"peptide, crude extract","concentration not given, corrected by standard peak, unit not given","relative to: biotin control resin, higher = stronger binding",binding intensity,-0.214
B4 (RABH1B),Nc1nc2c(ncn2[C@@H]2O[C@H](COP(=O)(O)OP(=O)(O)OP(=O)(O)O)[C@@H](O)[C@H]2O)c(=O)[nH]1,steady-state kinetics,,"pH 7.5, 30 °C",,Km,12900 µM
B5 (enzyme),O=[N+]([O-])c1ccc(O[C@@H]2OC[C@@H](O)[C@H](O)[C@H]2O)cc1,steady-state kinetics,,"pH 4, 40 °C, apparent",,Km,650 µM
B6 (enzyme H130Y),C[S+](CC[C@H](N)C(=O)O)C[C@H]1O[C@@H](n2cnc3c(N)ncnc32)[C@H](O)[C@@H]1O,steady-state kinetics,,"pH 7.9, 37 °C, apparent, added: 1-200 µM SAM",,Km,1.7 µM
B7 (enzyme C434A),Nc1ncnc2c1ncn2[C@@H]1O[C@H](COP(=O)(O)OP(=O)(O)OP(=O)(O)O)[C@@H](O)[C@H]1O,steady-state kinetics,,"pH 8.5, 25 °C, apparent, anoxic, added: L-Thr 10 mM",,Km,108 µM
"efeB (Bacillus subtilis, UniProt P39597)",CCn1c(=NN=c2sc3cc(S(=O)(=O)O)ccc3n2CC)sc2cc(S(=O)(=O)O)ccc21,steady-state kinetics,,"pH 6, 25 °C, apparent",,Km,1400 µM
"enzyme (Leishmania braziliensis, UniProt A4HPA0)",Nc1ncnc2c1ncn2[C@@H]1O[C@H](COP(=O)(O)OP(=O)(O)OP(=O)(O)O)[C@@H](O)[C@H]1O,steady-state kinetics,,added: Mg2+,,Km,338 µM

# Repeated from above:
Molecule,tested on,test,test system,setting,scale,quantity,value
B5 (enzyme),O=[N+]([O-])c1ccc(O[C@@H]2OC[C@@H](O)[C@H](O)[C@H]2O)cc1,steady-state kinetics,,"pH 4, 40 °C, apparent",,Km,650 µM
"efeB (Bacillus subtilis, UniProt P39597)",CCn1c(=NN=c2sc3cc(S(=O)(=O)O)ccc3n2CC)sc2cc(S(=O)(=O)O)ccc21,steady-state kinetics,,"pH 6, 25 °C, apparent",,Km,1400 µM
